Measured values collected from several papers.
Each line is one published result; not all experiments were run side by side. ± gives the spread as reported.
Organism: Escherichia coli

Substance | assay | system | setting | MIC
KTLTGKTITLE | – | peptide, DH5α, Luria broth | overnight, 37 °C | 10 µM
C[C@@H](O)[C@H]1C(=O)N2C(C(=O)O)=C(SCCN=CN)C[C@H]12 | – | clinical isolates, blaNDM-1 | – | 8 µg/mL
CC[C@H](C)[C@H](NC(=O)[C@H](CCCCN)NC(=O)[C@H](CCCNC(=N)N)NC(=O)[C@@H](NC(=O)[C@H](CC(C)C)NC(=O)[C@H](CCCCN)NC(=O)[C@H](CC(C)C)NC(=O)[C@@H](NC(=O)[C@H](CCCCN)NC(=O)CNC(=O)[C@H](Cc1ccccc1)NC(=O)[C@@H](N)Cc1ccccc1)C(C)C)[C@@H](C)CC)C(=O)N[C@@H](Cc1ccccc1)C(N)=O | broth microdilution | K12 | 37 °C | > 100 µM
CC(C)C[C@H](NC(=O)[C@H](CCCNC(=N)N)NC(=O)[C@@H]1CCCN1C(=O)[C@H](Cc1c[nH]cn1)NC(=O)[C@@H]1CCCN1C(=O)[C@@H]1CCCN1C(=O)[C@H](CCCNC(=N)N)NC(=O)[C@@H]1CCCN1C(=O)[C@H](CCC(N)=O)NC(=O)[C@@H]1CCCN1C(=O)[C@H](CCCNC(=N)N)NC(=O)[C@H](Cc1ccc(O)cc1)NC(=O)[C@@H](NC(=O)[C@@H]1CCCN1C(=O)[C@H](CCCCN)NC(=O)[C@H](CC(N)=O)NC(=O)[C@H](CC(N)=O)NC(=O)CN)C(C)C)C(=O)O | broth microdilution | BW25113 parental, Mueller-Hinton broth | 18 h, 37 °C | 0.012 ± 0.003 µM
CC[C@H](C)[C@H](NC(=O)[C@H](CO)NC(=O)[C@H](CO)NC(=O)[C@H](Cc1ccccc1)NC(=O)CN)C(=O)N[C@@H](Cc1ccccc1)C(=O)N[C@@H](CCCCNC(=N)N)C(=O)NCC(=O)N[C@H](C(=O)N[C@@H](C)C(=O)N[C@@H](CCCCNC(=N)N)C(=O)N[C@@H](Cc1ccccc1)C(=O)N[C@@H](C)C(=O)N[C@@H](CO)C(=O)N[C@@H](CCCCNC(=N)N)C(=O)NCC(=O)N[C@@H](CC(C)C)C(=O)NCC(=O)N[C@@H](CCCCNC(=N)N)C(N)=O)C(C)C | – | ATCC 8739 | pretreated trypsin 1 mg/mL | 16 µM
N=C(N)NCCC[C@H](NC(=O)[C@H](Cc1c[nH]cn1)NC(=O)[C@@H]1CCCN1C(=O)[C@H](CS)NC(=O)[C@@H]1CCCN1)C(=O)N[C@@H](CS)C(=O)O | broth microdilution | MTCC 443 | 37 °C | 50 µg/mL
CC[C@H](C)[C@H](NC(=O)[C@H](CCCNC(=N)N)NC(=O)[C@@H](N)CCCNC(=N)N)C(=O)N[C@@H](CCCCN)C(=O)N[C@@H](CCCCN)C(=O)N[C@@H](CCCNC(=N)N)C(=O)N1CCC[C@H]1C(=O)N1CCC[C@H]1C(=O)N[C@@H](CCCNC(=N)N)C(=O)N[C@@H](CC(C)C)C(=O)N1CCC[C@H]1C(=O)N[C@@H](CCCNC(=N)N)C(=O)N1CCC[C@H]1C(=O)N[C@@H](CCCNC(=N)N)C(=O)N1CCC[C@H]1C(=O)N[C@@H](CCCNC(=N)N)C(=O)O | broth microdilution | BW25113 parental, Mueller-Hinton broth | 18 h, 37 °C | 0.078 ± 0.032 µM
CO/N=C(\C(=O)N[C@@H]1C(=O)N2C(C(=O)O)=C(COC(C)=O)CS[C@H]12)c1csc(N)n1 | – | AmpC-overproducing clinical isolate | alone without inhibitor, first isolate | 16 µg/mL
CC(C)C[C@H](NC(=O)[C@H](CCCNC(=N)N)NC(=O)[C@@H]1CCCN1C(=O)[C@H](CCCNC(=N)N)NC(=O)[C@@H]1CCCN1C(=O)[C@@H]1CCCN1C(=O)[C@H](CCCNC(=N)N)NC(=O)[C@@H]1CCCN1C(=O)[C@H](CCC(N)=O)NC(=O)[C@@H]1CCCN1C(=O)[C@H](CCCNC(=N)N)NC(=O)[C@H](Cc1ccc(O)cc1)NC(=O)[C@@H](NC(=O)[C@@H]1CCCN1C(=O)[C@H](CCCCN)NC(=O)[C@H](CC(N)=O)NC(=O)[C@H](CC(N)=O)NC(=O)CN)C(C)C)C(=O)O | – | JW0368 ΔsbmA | 18 h, 37 °C, 12.5% Mueller-Hinton broth | 0.133 ± 0.061 µM
CC(C)C[C@H](NC(=O)[C@H](Cc1c[nH]c2ccccc12)NC(=O)[C@H](CCCNC(=N)N)NC(=O)[C@H](CC(C)C)NC(=O)[C@H](CCCNC(=N)N)NC(=O)[C@H](Cc1c[nH]c2ccccc12)NC(=O)[C@H](Cc1c[nH]c2ccccc12)NC(=O)[C@H](CC(C)C)NC(=O)[C@H](CCCCN)NC(=O)[C@H](Cc1c[nH]c2ccccc12)NC(=O)[C@@H](NC(=O)[C@@H](N)CC(C)C)C(C)C)C(=O)N[C@@H](CCCCN)C(N)=O | – | ATCC 25922 | 1 h, 37 °C, dividing cells in LB | ≥ 100 µg/mL
CC(C)C[C@H](NC(=O)[C@H](CCCNC(=N)N)NC(=O)[C@@H]1CCCN1C(=O)[C@H](Cc1c[nH]cn1)NC(=O)[C@@H]1CCCN1C(=O)[C@@H]1CCCN1C(=O)[C@H](CCCNC(=N)N)NC(=O)[C@@H]1CCCN1C(=O)[C@H](CCC(N)=O)NC(=O)[C@@H]1CCCN1C(=O)[C@H](CCCCN)NC(=O)[C@H](Cc1ccc(O)cc1)NC(=O)[C@@H](NC(=O)[C@@H]1CCCN1C(=O)[C@H](CCCCN)NC(=O)[C@H](CC(N)=O)NC(=O)[C@H](CC(N)=O)NC(=O)CN)C(C)C)C(=O)O | broth microdilution | BW25113 parental, Mueller-Hinton broth | 18 h, 37 °C | 0.017 ± 0.009 µM
CC[C@H](C)[C@H](NC(=O)CN)C(=O)N[C@@H](CCCCN)C(=O)N[C@@H](Cc1ccccc1)C(=O)N[C@@H](Cc1ccccc1)C(=O)N[C@@H](CC(C)C)C(=O)N[C@@H](CCCCN)C(=O)N[C@@H](CCCCN)C(=O)N[C@@H](CC(C)C)C(=O)N[C@@H](CCCCN)C(=O)N[C@@H](CCCCN)C(=O)N[C@@H](Cc1c[nH]cn1)C(N)=O | broth microdilution | ATCC 25922, LB medium | 16 to 20 h, 37 °C | 100 µg/mL
CC[C@H](C)[C@H](NC(=O)[C@H](CCCCN)NC(=O)[C@H](CCC(=O)O)NC(=O)[C@H](CCCCN)NC(=O)[C@H](CO)NC(=O)[C@H](CCCCN)NC(=O)[C@H](CCCNC(=N)N)NC(=O)[C@H](Cc1ccccc1)NC(=O)[C@H](Cc1ccccc1)NC(=O)[C@H](CC(=O)O)NC(=O)CNC(=O)[C@H](CC(C)C)NC(=O)[C@@H](N)CC(C)C)C(=O)NCC(=O)N[C@@H](CCCCN)C(=O)N[C@@H](CCC(=O)O)C(=O)N[C@@H](Cc1ccccc1)C(=O)N[C@@H](CCCCN)C(=O)N[C@@H](CCCNC(=N)N)C(=O)N[C@H](C(=O)N[C@H](C(=O)N[C@@H](CCC(N)=O)C(=O)N[C@@H](CCCNC(=N)N)C(=O)N[C@H](C(=O)N[C@@H](CCCCN)C(=O)N[C@@H](CC(=O)O)C(=O)N[C@@H](Cc1ccccc1)C(=O)N[C@@H](CC(C)C)C(=O)N[C@@H](CCCNC(=N)N)C(=O)N[C@@H](CC(N)=O)C(=O)N[C@@H](CC(C)C)C(=O)N[C@H](C(=O)N1CCC[C@H]1C(=O)N[C@@H](CCCNC(=N)N)C(=O)N[C@H](C(=O)N[C@@H](CCC(=O)O)C(=O)N[C@@H](CO)C(=O)O)[C@@H](C)O)C(C)C)[C@@H](C)CC)C(C)C)[C@@H](C)CC | broth microdilution | DC2 outer membrane mutant | – | 3 µM
CC(C)C[C@H](NC(=O)[C@H](Cc1ccccc1)NC(=O)[C@H](CCCCN)NC(=O)[C@@H](N)CCCCN)C(=O)NCC(=O)N[C@@H](CCCCN)C(=O)N[C@@H](Cc1c[nH]c2ccccc12)C(=O)N[C@@H](CCCCN)C(=O)N[C@@H](CC(C)C)C(=O)N[C@@H](CCCNC(=N)N)C(=O)N[C@@H](Cc1ccccc1)C(=O)NCC(=O)N[C@@H](Cc1c[nH]c2ccccc12)C(N)=O | – | ATCC 25922 | 1 h, 37 °C, dividing cells in LB | 12.5 to 25 µg/mL
CC[C@H](C)[C@H](NC(=O)[C@H](C)NC(=O)[C@@H]1CCCN1C(=O)[C@@H](NC(=O)[C@@H](NC(=O)[C@H](Cc1c[nH]cn1)NC(=O)[C@H](CO)NC(=O)[C@@H](NC(=O)[C@@H](NC(=O)[C@H](CO)NC(=O)CNC(=O)[C@H](CC(C)C)NC(=O)[C@H](CC(C)C)NC(=O)CNC(=O)[C@H](CC(C)C)NC(=O)[C@H](CC(C)C)NC(=O)CN)C(C)C)C(C)C)C(C)C)C(C)C)C(=O)N[C@H](C(=O)NCC(=O)N[C@@H](Cc1c[nH]cn1)C(=O)N[C@@H](Cc1ccccc1)C(N)=O)C(C)C | broth microdilution | K12 | 37 °C | > 100 µM
indolicidin | – | ATCC 25922 | – | 2.78 µM
CC(C)C[C@H](NC(=O)[C@H](C)NC(=O)[C@H](CCCCN)NC(=O)[C@H](C)NC(=O)[C@H](C)NC(=O)CNC(=O)[C@H](CCCCN)NC(=O)[C@H](CC(C)C)NC(=O)[C@H](CC(C)C)NC(=O)[C@H](CC(=O)O)NC(=O)[C@H](CCCCN)NC(=O)[C@H](Cc1ccccc1)NC(=O)CN)C(=O)N[C@H](C(=O)N[C@@H](CCCCN)C(=O)N[C@H](C(=O)N[C@H](C(=O)N[C@@H](CC(C)C)C(=O)N[C@@H](Cc1ccccc1)C(N)=O)C(C)C)[C@@H](C)O)C(C)C | broth microdilution | K12 | 37 °C | 12.5 µM
CC(C)C[C@H](NC(=O)[C@H](C)NC(=O)[C@H](CCCCN)NC(=O)[C@H](CC(C)C)NC(=O)[C@H](CC(C)C)NC(=O)[C@H](CCCCN)NC(=O)[C@H](CCCCN)NC(=O)[C@H](CC(C)C)NC(=O)[C@H](CC(C)C)NC(=O)[C@H](CCCCN)NC(=O)[C@H](CC(C)C)NC(=O)[C@H](CC(C)C)NC(=O)[C@@H](N)CCCCN)C(=O)NCC(N)=O | – | ATCC 25922, CAMHB | 18 h, 37 °C | 20 µM

For quick reference, copied from above:
Substance | assay | system | setting | MIC
KTLTGKTITLE | – | peptide, DH5α, Luria broth | overnight, 37 °C | 10 µM
CC[C@H](C)[C@H](NC(=O)[C@H](CCCCN)NC(=O)[C@H](CCCNC(=N)N)NC(=O)[C@@H](NC(=O)[C@H](CC(C)C)NC(=O)[C@H](CCCCN)NC(=O)[C@H](CC(C)C)NC(=O)[C@@H](NC(=O)[C@H](CCCCN)NC(=O)CNC(=O)[C@H](Cc1ccccc1)NC(=O)[C@@H](N)Cc1ccccc1)C(C)C)[C@@H](C)CC)C(=O)N[C@@H](Cc1ccccc1)C(N)=O | broth microdilution | K12 | 37 °C | > 100 µM
